Results collected from several papers.
Each line is one published result; not all experiments were run side by side.
UCHL1: Ubiquitin carboxyl-terminal hydrolase isozyme L1 (UCHL1, Homo sapiens, UniProt P09936)
Sequence of UniProt P09936 (whole entry, looked up): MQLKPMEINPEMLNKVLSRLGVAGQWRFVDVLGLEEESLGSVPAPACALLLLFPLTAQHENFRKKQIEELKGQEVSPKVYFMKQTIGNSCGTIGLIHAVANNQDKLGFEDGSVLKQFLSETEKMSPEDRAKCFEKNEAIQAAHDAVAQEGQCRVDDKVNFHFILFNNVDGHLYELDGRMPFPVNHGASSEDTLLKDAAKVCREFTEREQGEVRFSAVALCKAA
Sequence of UniProt Q07794 (whole entry, looked up): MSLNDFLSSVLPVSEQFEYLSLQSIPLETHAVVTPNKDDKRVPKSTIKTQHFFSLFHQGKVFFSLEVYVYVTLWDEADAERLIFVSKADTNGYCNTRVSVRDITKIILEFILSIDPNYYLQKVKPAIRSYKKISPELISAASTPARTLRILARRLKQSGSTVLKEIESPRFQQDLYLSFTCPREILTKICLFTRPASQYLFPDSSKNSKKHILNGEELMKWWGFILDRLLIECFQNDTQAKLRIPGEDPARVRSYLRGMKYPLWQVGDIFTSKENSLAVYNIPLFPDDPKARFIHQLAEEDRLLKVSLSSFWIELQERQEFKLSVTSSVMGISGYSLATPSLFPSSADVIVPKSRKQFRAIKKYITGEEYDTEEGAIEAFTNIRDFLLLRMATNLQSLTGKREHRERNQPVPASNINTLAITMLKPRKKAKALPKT

Structure (SMILES) | target or system | assay | system | setting | scale | endpoint | value
N=C(N)c1ccc(OCCCCCOc2ccc(C(=N)N)cc2)cc1 | Escherichia coli |  | 552100 | in combination, checkerboard, together with: rifampicin |  | MIC | 50 µg/mL
C=C1C(=O)O[C@@H](CCCCCCCCCCCCC)[C@@H]1C(=O)O | Nakaseomyces glabratus |  | CG2 |  |  | MIC | 32 µg/mL
CO/N=c1\cc2n(-c3ccc(Cl)cc3)c3ccccc3nc-2cc1Nc1ccc(Cl)cc1 | Neisseria meningitidis | bacterial growth | ATCC 13077 | 24 h |  | MIC | > 30 µM
CC[C@H](C)CCCCC(=O)N[C@@H](CCN)C(=O)N[C@H](C(=O)N[C@@H](CCN)C(=O)N[C@H]1CCNC(=O)[C@H]([C@@H](C)O)NC(=O)[C@H](CCN)NC(=O)[C@H](CCN)NC(=O)[C@H](CC(C)C)NC(=O)[C@@H](CC(C)C)NC(=O)[C@H](CCN)NC1=O)[C@@H](C)O | Pseudomonas aeruginosa | broth microdilution | ATCC 10145, cation-adjusted Mueller-Hinton broth | 18 to 20 h, 37 °C, 0.002% polysorbate 80 |  | MIC | 1 µg/mL
CCc1cc(Nc2cc(=O)n(CCCCO)c(=O)[nH]2)ccc1C | Clostridioides difficile | agar dilution anaerobic | 3584 | 48 h |  | MIC | 4 µg/mL
O=C(O)CO/N=c1\cc2n(-c3ccc(Cl)cc3)c3ccccc3nc-2cc1Nc1ccc(Cl)cc1 | Neisseria meningitidis | bacterial growth | ATCC 13077 | 24 h |  | MIC | 0.23 µM
Nc1[nH]c(=O)ncc1F | Cryptococcus neoformans | EUCAST broth dilution |  | 72 h, 37 °C, compound alone |  | MIC | 31 µM
OC(Cn1cncn1)(Cn1cncn1)c1ccc(F)cc1F | Nakaseomyces glabratus |  | CG2 |  |  | MIC | 8 µg/mL
O=C(CCl)N1c2ccccc2Sc2ccc(Cl)cc21 | UCHL1 | covalent, intact protein LC-MS |  | 12.5 µM |  | labelling | 16.5%
O=c1[nH]c(NCc2ccc(Cl)c(Cl)c2)nc2ncn(CCN3CCOCC3)c12 | Clostridioides difficile | agar dilution anaerobic | 3581 | 48 h |  | MIC | 2 µg/mL
C[C@H](NC(=O)CO/N=c1\cc2n(-c3ccc(Cl)cc3)c3ccccc3nc-2cc1Nc1ccc(Cl)cc1)C(=O)OC(C)(C)C | Neisseria meningitidis | bacterial growth | ATCC 13077 | 24 h |  | MIC | > 30 µM
CCOCCn1cnc2nc(NCc3ccc(Cl)c(Cl)c3)[nH]c(=O)c21 | Clostridioides difficile | agar dilution anaerobic | 3581 | 48 h |  | MIC | 2 µg/mL
N=C(N)c1ccc(OCc2cc(COc3ccc(C(=N)N)cc3)cc(-c3ccccc3)c2)cc1 | Escherichia coli |  | W3110 | in combination, checkerboard, together with: rifampicin |  | MIC | 6.25 µg/mL
N#CC(=Cc1ccc(OC(F)F)cc1)C(=O)N1CCCC1 | UCHL1 | covalent, intact protein LC-MS |  | 12.5 µM |  | labelling | 10.3%
CC(=O)n1cc([C@H]2C=C(C(=O)N3CCN(Cc4ccc5c(c4)OCO5)CC3)O[C@@H](OCc3ccc(CO)cc3)C2)c2ccccc21 | Trypanosoma cruzi | reporter translation, Renilla luciferase mRNA translation | cell-free extract | 40 µM | reference: DMSO | inhibition | 47.5%
CCCCCCCCCC(=O)N[C@@H](Cc1c[nH]c2ccccc12)C(=O)N[C@H](CC(N)=O)C(=O)N[C@@H](CC(=O)O)C(=O)N[C@@H]1C(=O)NCC(=O)N[C@@H](CCCN)C(=O)N[C@@H](CC(=O)O)C(=O)N[C@H](C)C(=O)N[C@@H](CC(=O)O)C(=O)NCC(=O)N[C@H](CO)C(=O)N[C@@H]([C@H](C)CC(=O)O)C(=O)N[C@@H](CC(=O)c2ccccc2N)C(=O)O[C@@H]1C | Staphylococcus aureus | broth microdilution | MRSA USA300, Mueller-Hinton broth, Mg2+ 10 mg/L | 16 h, 37 °C, together with: Ca2+ 5 mM |  | MIC | 0.25 µg/mL
N=C(N)c1ccc(OCCCCCOc2ccc(C(=N)N)cc2)cc1 | Trypanosoma cruzi | reporter translation, Renilla luciferase mRNA translation | cell-free extract | 40 µM | reference: DMSO | inhibition | -7.7%
Cc1ncc([N+](=O)[O-])n1CCO | Clostridioides difficile | agar dilution anaerobic | ATCC 4381 | 48 h |  | MIC | 0.5 µg/mL

Structure (SMILES) | target or system | assay | system | setting | scale | endpoint | value
N=C(N)c1ccc(OCc2ccc(Br)cc2COc2ccc(C(=N)N)cc2)cc1 | Escherichia coli |  | mcr-1 polymyxin-resistant | 20 h, compound alone |  | MIC | 100 µg/mL
CC(C)(C)Oc1ccc(CC2NC(=O)C(C(=O)NC(C(=O)NC3C(=O)N4C3SC(C)(C)C4C(=O)O)c3ccccc3)=C2O)cc1 (stereo not drawn) | Escherichia coli | broth microdilution | ATCC 25922 wild type | no clavulanic acid |  | MIC | 25 µg/mL
N=C(N)c1ccc(OCc2cccc(COc3ccc(C(=N)N)cc3)c2)cc1 | Escherichia coli |  | BW25113 | compound alone, vancomycin checkerboard |  | MIC | > 200 µg/mL
CCN1CCN(C(=O)N[C@@H](C(=O)N[C@@H]2C(=O)N3[C@@H]2SC(C)(C)[C@@H]3C(=O)O)c2ccccc2)C(=O)C1=O | Escherichia coli | broth microdilution | ATCC 25922 wild type | together with: clavulanic acid 6 µg/mL |  | MIC | 12.5 µg/mL
O=C(NC1CS(=O)(=O)c2ccccc21)c1ccc2[nH]c3c(c2c1)CCCC3 (stereo not drawn) | Histone acetyltransferase RTT109, with Vps75 (Saccharomyces cerevisiae, UniProt Q07794) | enzyme activity, inhibitor, HTS, CPM-based, dose response |  |  |  | IC50 | > 125 µM
CC(=O)NC[C@H]1CN(c2ccc(N3CCOCC3)c(F)c2)C(=O)O1 | Staphylococcus aureus | broth microdilution | vancomycin-resistant VRS10 |  |  | MIC | 2 µM
OC(Cn1cncn1)(Cn1cncn1)c1ccc(F)cc1F | Cryptococcus neoformans |  | 138, RPMI 1640 | 24 h, 35 °C |  | MIC | 25 µM
CC(C)C1NC(=O)C(C(=O)NC(C(=O)NC2C(=O)N3C2SC(C)(C)C3C(=O)O)c2ccccc2)=C1O (stereo not drawn) | Escherichia coli | broth microdilution | ATCC 25922 wild type | together with: clavulanic acid 6 µg/mL |  | MIC | 12.5 µg/mL
N=C(N)c1ccc(OCc2cc(Br)cc(COc3ccc(C(=N)N)cc3)c2)cc1 | Escherichia coli |  | 552100 | in combination, checkerboard, together with: rifampicin |  | MIC | 6.25 µg/mL
Cc1c(CN(C)C(=O)/C=C/c2cnc3c(c2)CCC(=O)N3)oc2ccccc12 | Escherichia coli | broth microdilution | AR-0048 |  |  | MIC | > 32 µg/mL
CC(=O)NC[C@H]1CN(c2ccc(N3CCOCC3)c(F)c2)C(=O)O1 | Levilactobacillus brevis |  | ATCC 14869 |  |  | MIC | 5.93 µM
CCCCCCCCCC(=O)N[C@@H](Cc1c[nH]c2ccccc12)C(=O)N[C@H](CC(N)=O)C(=O)N[C@@H](CC(=O)O)C(=O)N[C@@H]1C(=O)NCC(=O)N[C@@H](CCCN)C(=O)N[C@@H](CC(=O)O)C(=O)N[C@H](C)C(=O)N[C@@H](CC(=O)O)C(=O)NCC(=O)N[C@H](CO)C(=O)N[C@@H]([C@H](C)CC(=O)O)C(=O)N[C@@H](CC(=O)c2ccccc2N)C(=O)O[C@@H]1C | Staphylococcus aureus |  | SH1000 | together with: phosphatidylcholine, molar ratio 1 |  | MIC | 1 µg/mL
O=C(O)CNC(=O)CO/N=c1\cc2n(-c3ccc(Cl)cc3)c3ccccc3nc-2cc1Nc1ccc(Cl)cc1 | Neisseria meningitidis | bacterial growth | ATCC 13077 | 24 h |  | MIC | > 30 µM
CNC(C)C1CCC(N)C(OC2C(N)CC(N)C(OC3OCC(C)(O)C(NC)C3O)C2O)O1 (stereo not drawn) | Salmonella enterica serovar Enteritidis | broth microdilution | clinical isolate RKI-No 205/14 |  |  | MIC | 1 µg/mL
CC(C)/N=c1\cc2n(-c3ccc(Cl)cc3)c3ccccc3nc-2cc1Nc1ccc(Cl)cc1 | Neisseria meningitidis | bacterial growth | ATCC 13077 | 24 h |  | MIC | 7.5 µM
O=c1[nH]c(NCc2ccc(Cl)c(Cl)c2)nc2ncn(CCCCCN3CCOCC3)c12 | Clostridioides difficile | agar dilution anaerobic | 3581 | 48 h |  | MIC | 2 µg/mL
CCOC(=O)CNC(=O)CO/N=c1\cc2n(-c3ccc(Cl)cc3)c3ccccc3nc-2cc1Nc1ccc(Cl)cc1 | Neisseria meningitidis | bacterial growth | ATCC 13077 | 24 h |  | MIC | 0.23 µM
C[C@H]1[C@H](NC(=O)/C(=N\OC(C)(C)C(=O)O)c2csc(N)n2)C(=O)N1S(=O)(=O)O | Proteus vulgaris | agar dilution | ATCC 29905 susceptible |  |  | MIC | ≤ 0.03 µg/mL
